Measurements pooled from the literature.
Lines come from different studies, so protocols differ. ± gives the spread as reported.

CN1CCC[C@]1(C)/C=C/S(=O)(=O)NC(=O)Nc1c2c(cc3c1CC(O)C3)CCC2 (stereo partly drawn)
AUC(0-tau) (human, plasma; oral, 12.5 mg twice daily of parent drug, day 14, metabolite of dosed drug): 16600 ng·h/mL

O=C([O-])CN1CCN(CC(=O)[O-])CCN(C(CO)C(O)CO)CCN(CC(=O)[O-])CC1.[Dy+3] (stereo not drawn)
cumulative faecal excretion (ICP-MS; cynomolgus monkey; 58 days; relative to: dose): 0.4%

CC[C@H](C)[C@H](NC(=O)CNC(=O)[C@H](C)NC(=O)[C@H](CC(=O)O)NC(=O)[C@H](CO)NC(=O)[C@H](C)NC(=O)[C@H](CC(C)C)NC(=O)[C@H](CCCCN)NC(=O)[C@H](CCCCN)NC(=O)[C@H](CCSC)NC(=O)[C@H](CC(N)=O)NC(=O)[C@H](Cc1ccccc1)NC(=O)[C@H](CC(=O)O)NC(=O)[C@@H](N)CCSC)C(=O)N[C@@H](Cc1c[nH]c2ccccc12)C(=O)N[C@@H](Cc1ccccc1)C(=O)N[C@H](C(=O)N[C@@H](CCCNC(=N)N)C(=O)N[C@@H](C)C(=O)N[C@H](C(=O)N[C@@H](CCC(N)=O)C(=O)N[C@@H](Cc1ccccc1)C(=O)N[C@H](C(=O)N[C@@H](CCC(=O)O)C(=O)N[C@@H](CCC(=O)O)C(=O)N[C@@H](CCCCN)C(=O)N[C@@H](Cc1ccccc1)C(=O)NCC(=O)N[C@@H](CCC(N)=O)C(=O)N[C@@H](C)C(N)=O)[C@@H](C)O)C(C)C)[C@@H](C)O
TFE midpoint (circular dichroism; aqueous TFE; 50 µM, pH 7.4, 20 °C): 2.35 ± 0.1 M

CCn1c(=O)c(-c2cc(NC(=O)Nc3ccccc3)c(F)cc2Br)cc2cnc(N)cc21
long-term stability accuracy (human plasma; 150 ng/mL, 1 months, -20 °C, low QC): -0.53%

O=C(NCCN1C(=O)CCC1=O)[O][Pt]12([O]C(=O)NCCN3C(=O)CCC3=O)([NH][C@@H]3CCCC[C@H]3[NH]1)[O]C(=O)C(=O)[O]2
tumour to organ ratio (AUC-based, item: platinum; BALB/c mice, CT26 tumour; iv; relative to: tumour over serum): 0.7

C=C(NC(=O)c1csc(-c2nc3c(cc2O)-c2nc(cs2)C(=O)NC(C(C)O)C(=O)NC(=C(C)OC)c2nc(cs2)C(=O)NC2c4nc(cs4)C(=O)NC(COC(=O)c4c5c6c(cccc6n4O)COC(=O)C(OC4CC(C)(O)C(N(C)C)C(C)O4)C2OC5)c2nc-3cs2)n1)C(N)=O (stereo not drawn)
Cmax (ICR mice, Streptococcus pneumoniae ATCC 49169 infected, immunocompromised, blood; intravenous, 16 mg/kg/day three times daily): 679 ng/mL

Cc1nc(N)nc2c1C(=O)N[C@@H](c1ccc(F)cc1-c1cccc(OCC[18F])n1)C2
SUV (ex vivo biodistribution; C57BL/6 mice, lungs; intravenous, 1 MBq, 30 min): 1.39 ± 0.15

CC(=O)N([O-])CCCCCNC(=O)CCC(=O)N([O-])CCCCCNC(=O)CCC(=O)N([O-])CCCCCN.[89Zr+4]
intact complex (radio-TLC; aqueous buffer; 3 d, pH 7.2, 37 °C, 89Zr-labelled complex, together with: MgCl2 10-fold excess): 98.2 ± 2%

COC1C=COC2(C)Oc3c(C)c(O)c4c(c3C2=O)C2=NC3(CCN(CC(C)C)CC3)NC2=C(NC(=O)C(C)=CC=CC(C)C(O)C(C)C(O)C(C)C(OC(=O)c2cncnc2)C1C)C4=O (stereo not drawn)
clearance (CD-1 mouse female, plasma; intravenous, 5 mg/kg): 3.92 mL/min/kg

COc1cccc(OC)c1-c1cc(C(=O)NC2(C(=O)O)C3CC4CC(C3)CC2C4)nn1-c1ccc(C(=O)N(C)CCOCCOCCN(C)C(=O)[C@H](CCCCNC(=O)[C@H](CC(C)C)NC(=O)C2OC2C(=O)O)NC(=O)CN2CCN(CC(=O)[O-])CCN(CC(=O)[O-])CCN(CC(=O)[O-])CC2)cc1C(C)C.[177Lu+3] (mixture of isomers)
tumour-to-liver ratio (mouse, HT-29 xenograft; 72 h post injection, biodistribution; relative to: tumour over liver uptake): 2.05

CNC(=O)C1CCCN(C(=O)C2CC3CCC2N3C(=O)[C@@H]2C[C@@H](O)CN2C(=O)NCc2cccc(Cl)c2F)C1 (mixture of isomers)
intrinsic clearance (monkey liver microsomes): 21.6 µL/min/mg

C/C(N)=N/C(=N\S(=O)(=O)c1ccc(C(F)(F)F)cc1)N1C[C@H](c2ccccc2)C(c2ccc(Cl)cc2)=N1
Tmax (male C57BL/6 mouse, brain; intravenous, 10 mg/kg): 30 min

CC(C)C[C@H](NC(=O)[C@H](CCCNC(=N)N)NC(=O)[C@H](Cc1ccccc1)NC(=O)[C@H](Cc1ccccc1)NC(=O)[C@@H](NC(=O)[C@H](CO)NC(=O)[C@H](CO)NC(=O)[C@H](CC(=O)O)NC(=O)[C@H](CO)NC(=O)[C@H](CO)NC(=O)[C@H](CC(=O)O)NC(=O)[C@H](CO)NC(=O)[C@H](CO)NC(=O)[C@H](CC(=O)O)NC(=O)[C@H](CO)NC(=O)[C@H](CO)NC(=O)[C@H](CC(=O)O)NC(=O)[C@H](CO)NC(=O)[C@H](CO)NC(=O)[C@H](CC(=O)O)NC(=O)[C@H](CO)NC(=O)[C@H](CO)NC(=O)[C@H](CC(=O)O)NC(=O)[C@H](CO)NC(=O)[C@H](CO)NC(=O)[C@H](CC(=O)O)NC(=O)[C@H](CO)NC(=O)[C@H](CO)NC(=O)[C@@H](N)CC(=O)O)[C@@H](C)O)C(=O)N[C@@H](Cc1ccccc1)C(=O)N[C@@H](CC(N)=O)C(=O)N[C@@H](CCCNC(=N)N)C(=O)N[C@@H](C)C(=O)N[C@@H](CCCCN)C(=O)N[C@@H](CCCNC(=N)N)C(=O)N[C@@H](Cc1c[nH]cn1)C(=O)N[C@@H](Cc1c[nH]cn1)C(=O)NCC(=O)N[C@@H](Cc1ccc(O)cc1)C(=O)N[C@@H](CCCCN)C(=O)N[C@@H](CCCNC(=N)N)C(=O)N[C@@H](CCCCN)C(=O)N[C@@H](Cc1ccccc1)C(=O)N[C@@H](Cc1c[nH]cn1)C(=O)O
peptide concentration (HPLC-UV; human saliva; 6 h, 37 °C, together with: initial 1 mg/mL): 0.894 mg/mL

O=C(Nc1cnccc1-c1ccc([18F])cc1)c1ccnc(NC(=O)C2CC2)c1
median SUV (PET imaging; FVB/NJ mice, both sexes, brain; intravenous, 10 min post-injection): 0.38

CC(C)(O)c1ncc([S@](N)(=O)=NC(=O)Nc2c3c(cc4c2CCC4)CCC3)s1
subjects with adverse events (item: Psychiatric disorders; healthy human volunteers; oral, 25 mg twice daily, 14 days, enteric-coated tablet): 13%

CCCCN1C(=O)c2cccc3c(NCCCCCCCCCCN4CCOCC4)ccc(c23)C1=O
fluorescence lifetime (DMSO): 10.2 ns

O=Cn1nnc2ccccc21
degradation rate constant (chemical stability, HPLC-MS; borate buffered saline; pH 10.2, no N-acetyl-lysine): 0 h⁻¹

Cc1noc(C)c1Cn1cc(N2C(=O)CN(Cc3cccc(OS(=O)(=O)O)c3)C2=O)cn1
plasma concentration (Sprague-Dawley rat, male; oral, 100 mg/kg of parent drug, 8 h): 3760 ng/mL

CCCCN1C(=O)c2cccc3c(NCCN4CCOCC4)ccc(c23)C1=O
absorption maximum (toluene): 420 nm

O=C(Nc1cnccc1-c1ccc([18F])nc1)c1ccnc(NC(=O)C2CC2)c1
SUV (FVB/NJ mouse, both sexes, liver; intravenous, 25 min): 9.75

CN1CCC[C@]1(C)/C=C/S(=O)(=O)NC(=O)Nc1c2c(cc3c1C(O)CC3)CCC2 (stereo partly drawn)
AUC(0-tau) (human, plasma; oral, 100 mg twice daily of parent drug, day 1, metabolite of dosed drug): 123000 ng·h/mL

COC(=O)Nc1ccc2nc(C(=N)N)ccc2c1.Cl
logD (octanol/buffer; 67 µM, pH 7.4): -1.09

CCCCN1C(=O)c2cccc3c(NCCCN4CCOCC4)ccc(c23)C1=O
absorption maximum (DMF): 441 nm

CCCC[C@H](NC(=O)CNC(=O)CNC(=O)[C@H](CCCCNC(=O)[C@H](CC(=O)O)NC(=O)C(C)c1ccc(CC(C)C)cc1)NC(=O)CN1CCN(CC(=O)O)CCN(CC(=O)O)CCN(CC(=O)O)CC1)C(=O)N[C@H]1CC(=O)NCCCC[C@@H](C(N)=O)NC(=O)[C@H](Cc2c[nH]c3ccccc23)NC(=O)[C@H](CCCNC(=N)N)NC(=O)[C@@H](Cc2ccccc2)NC(=O)[C@H](Cc2c[nH]cn2)NC1=O (stereo partly drawn) [lutetium-177 labelled]
tumour-to-tissue ratio (C57 mice, tumour; 2 h; relative to: lung): 26.8

Cc1c(Cc2cccc(OC(C)(C)C(=O)O)c2)c2ccc(C(=O)N[C@@H](C)c3cccc(C(C)(C)C)c3)cc2n1CC(C)C
half-life (metabolic stability; mouse, liver microsomes): > 60 min

CCCC[C@H](NC(=O)CCCCCCCNC(=O)CN1CCN(CC(=O)O)CCN(CC(=O)O)CC1)C(=O)N[C@H]1CC(=O)NCCCC[C@@H](C(N)=O)NC(=O)[C@H](Cc2c[nH]c3ccccc23)NC(=O)[C@H](CCCNC(=N)N)NC(=O)[C@@H](Cc2ccccc2)NC(=O)[C@H](Cc2c[nH]cn2)NC1=O [fluorine-18 labelled]
urinary excretion (C57 mice B16/F10 melanoma, urine; intravenous, dose not given, 1 h, together with: NDP-MSH 10 µg blockade): 77 ± 3.84%

CC1Cc2ccccc2N1C(=O)CN1CCN(Cc2ccccc2)CC1 (stereo not drawn)
tissue/plasma ratio (female NMRI mice; intraperitoneal, 10 mg/kg free base, 60 min; relative to: brain over blood): 8.29

Excerpt of the above:
O=C(Nc1cnccc1-c1ccc([18F])cc1)c1ccnc(NC(=O)C2CC2)c1
median SUV (PET imaging; FVB/NJ mice, both sexes, brain; intravenous, 10 min post-injection): 0.38

CC(C)(O)c1ncc([S@](N)(=O)=NC(=O)Nc2c3c(cc4c2CCC4)CCC3)s1
subjects with adverse events (item: Psychiatric disorders; healthy human volunteers; oral, 25 mg twice daily, 14 days, enteric-coated tablet): 13%

CCCCN1C(=O)c2cccc3c(NCCCCCCCCCCN4CCOCC4)ccc(c23)C1=O
fluorescence lifetime (DMSO): 10.2 ns
